Measured values collected from several papers.
Each numbered part is a random draw from the data of one study; scales do not carry over between parts. Positions count from the first letter of the parent shown.

Study 1 — technique: protein binding microarray; molecule type: double-stranded DNA, one strand shown; matrix: in vitro; tested at: not given; reference: not given; direction: higher = stronger binding
Target: Histone acetyltransferase KAT6A, both winged helices, GST fusion (KAT6A, Homo sapiens, UniProt Q92794, residues 1-181)
Setting: 8-mer, flanks averaged, mean of 2 arrays, mostly near background
Residues (chain): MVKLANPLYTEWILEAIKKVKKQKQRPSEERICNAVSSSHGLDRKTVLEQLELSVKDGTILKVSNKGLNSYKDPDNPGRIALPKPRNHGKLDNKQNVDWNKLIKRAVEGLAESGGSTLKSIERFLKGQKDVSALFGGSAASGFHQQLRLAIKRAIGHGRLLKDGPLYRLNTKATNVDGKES
With `AGGGTCAG` the E-score was -0.19.
`AAGCACCA` has an E-score of -0.162.
For `GACCACCA`, the E-score was 0.00188.
`AGATTCCT` has an E-score of -0.265.
With `ATCCCGCG` the E-score was 0.35.
`CGCTGAGA` has an E-score of 0.0586.
With `GACAGTTA` the E-score was -0.0131.
The E-score of `ACTATTCG` is reported as -0.0929.
`GGCGGCTA` has an E-score of 0.236.
The E-score of `GACAGGTC` is reported as -0.13.
`ACAATGAC` gave an E-score of -0.14.
`AGCTGGCC` has an E-score of -0.0177.
With `GACGACTA` the E-score was -0.0436.
With `GGGTTTAC` the E-score was 0.111.
`AGGCTCAT` has an E-score of -0.193.

Study 2 — technique: RNA Bind-n-Seq; molecule type: RNA; matrix: in vitro; tested at: 1 µM; setting: whole 134-nt RNA, ends assumed; with: 150 mM KCl; reference: input library; direction: higher = stronger binding
Target: Ras GTPase-activating protein-binding protein 1, C-terminal RGG region (G3BP1, Homo sapiens, UniProt Q13283)
Chain of UniProt Q13283 (whole entry, looked up): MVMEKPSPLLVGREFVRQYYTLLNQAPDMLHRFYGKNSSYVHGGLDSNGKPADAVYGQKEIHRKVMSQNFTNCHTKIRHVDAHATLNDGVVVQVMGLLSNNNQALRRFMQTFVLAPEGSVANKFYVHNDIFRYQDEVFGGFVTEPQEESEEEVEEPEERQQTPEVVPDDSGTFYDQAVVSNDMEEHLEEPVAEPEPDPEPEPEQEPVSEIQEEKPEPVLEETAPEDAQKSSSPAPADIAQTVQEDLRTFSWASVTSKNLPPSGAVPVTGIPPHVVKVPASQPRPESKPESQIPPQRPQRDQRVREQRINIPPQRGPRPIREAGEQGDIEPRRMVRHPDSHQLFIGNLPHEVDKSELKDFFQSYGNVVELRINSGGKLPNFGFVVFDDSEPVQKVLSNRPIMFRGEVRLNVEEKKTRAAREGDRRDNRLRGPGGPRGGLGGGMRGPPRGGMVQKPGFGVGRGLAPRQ
All sequences stand within: GGGAGUUCUACAGUCCGACGAUC … UGGAAUUCUCGGGUGUCAAGG
`UCCUCAAGUCCUGUGCUACACAUCGUAUGUACCGAAUCGGUUUGGUGGAGGAAAGUAUUAUGUUACGCCGUUCGGAUCUGCACUUCCAGC` gave a log2 enrichment of -1.15.
`GCAGGAAGUAAAAACAAAUGGAAAUGCUUCGGAUAGUGGCAGGGGUGGGGGUUGCUAAGGAAAGGGUGGGAUGGGAGUGGAUAAAGAGUU` has a log2 enrichment of 1.47.
The log2 enrichment of `GUCCUGUGCUACACAUCGUAUGUACCGAAUCGGGAAAGGGAAAAAAAGGGUUUUUGGGAAAGUAUUAUGUUACGCCGUUCGGAUCUGCAC` is reported as -0.388.
The log2 enrichment of `UGGCCCUGGUGGCAUGCGGGGAGGAAGAGGUGGCCUCAUGGUUCGUGGUGGUCCCGGUGGAAUGUUCAGAGGUGGCCGUGGUGGAGACAG` is reported as 1.76.
The log2 enrichment of `UCCUGUGCUACACAUCGUAUGUACCGAAUCGGUUUUUUUGGUUUUUUUGGAAAAAAAGGAAAGUAUUAUGUUACGCCGUUCGGAUCUGCA` is reported as -1.35.
`ACCAUGCAGGUGGGCAUCUUUGGGAAUUGGGGCAAGGGGGGGAUAGGGAGGGGGGUAACACUUUGGGAACAGGUGGUCCCAGGUCGUUUC` has a log2 enrichment of -0.844.
`CUAGAGAGCUGUAGUACACAUGGAUGAACGACGAGAAGAACAAAUUGUACAGUUACUGAAUUCUGUUCAAGCGAAGAAUGAUAAAGAGUC` gave a log2 enrichment of -0.458.
`AAGUCCUGUGCUACACAUCGUAUGUACCGAAUCGGUUUUGGGGUUUUGGUUUUGGGGAAAGUAUUAUGUUACGCCGUUCGGAUCUGCACU` gave a log2 enrichment of -1.18.

Study 3 — technique: RNA Bind-n-Seq; molecule type: RNA; matrix: in vitro; tested at: not given; reference: input RNA pool; direction: higher = stronger binding
Target: RING finger protein unkempt homolog, zinc fingers 1-6, GST-SBP tag (UNK, Homo sapiens, UniProt Q9C0B0, residues 30-357)
Chain of UniProt Q9C0B0 (30-357, looked up): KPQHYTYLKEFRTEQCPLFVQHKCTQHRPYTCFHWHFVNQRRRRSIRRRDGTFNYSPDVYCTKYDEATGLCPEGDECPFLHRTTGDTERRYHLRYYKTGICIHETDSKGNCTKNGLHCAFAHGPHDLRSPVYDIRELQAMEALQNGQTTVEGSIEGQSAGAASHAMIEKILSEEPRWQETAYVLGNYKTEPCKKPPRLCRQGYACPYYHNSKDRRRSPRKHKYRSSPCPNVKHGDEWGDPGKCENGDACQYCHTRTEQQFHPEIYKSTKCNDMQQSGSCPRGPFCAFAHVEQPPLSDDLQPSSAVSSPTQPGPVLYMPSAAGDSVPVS
Setting: RNA with constant flanks, human and mouse sites, ends assumed
All sequences stand within: GGGAGUUCUACAGUCCGACGAUC … CAACAGAGGAUUGAGCAUCA
For `GAGAAGCGAGAAAAGAUGAAACGGACCCUUUUAAAAGAUUGGAAGACCCGUUUGAGCUACUUCUUACAAAAUUCCUCUACUCCUGGGAAGCCCAAAACCGGCAAAAAAAGCAAACAGCAA`, the bound/input enrichment was 0.286 ratio.
With `AUUAUAAGAGAAACAGAAAAUGAUGAUCUUACAAAUGUAAUUCAGAAAAUGAUCUGUGAAUAUAGUGAAGAAGUUACUCCUAUUGCUGUAGAAAUGACACAACAUCUGGCAAUGACAUUU` the bound/input enrichment was 0.182 ratio.
With `GUUUACAUCUUUGGUGACGGACGAGGCCUUAUAGAAGGAAAUGACAUUUAUGGUAAUGCGUUAGCAGGAAUUCAGAUCAGGACAAACAGUUGUCCUAUUGUUCGACAUAACAAAAUUCAU` the bound/input enrichment was 0.409 ratio.
`UAAUAAUGGAAUUGCUUUUUCUUUUGCCUUGUGAUUUUUUUUUGAGGUGAAAUUUAAUUUGUGUAUGUGUGUGUGUGUAGUGUUCUGCCCAUCUGAGUGUCUACUUGUAUCACAUUCCAU` has a bound/input enrichment of 0.282 ratio.
`UCUGAGAAAAGAAACUACCAGGUGACAAACAGCAUGUUUGGUGCUUCAAGAAAGAAGUUUGUAGAGGGGGUCGACAGUGACUACCAUGACGAAAACAUGUACUACAGCCAGUCUUCUAUG` has a bound/input enrichment of 0.119 ratio.
With `AGCAUGUUUAUAAUGUGCGCAGGACAAGCUUGAGAAUGGUCAUUGUGGUUAAUGUGCUGGUUAGUUGACGUUAUGACUACUUUAAGGAUUGUGACACACUCCUACUGAAAAACCUCAGUG` the bound/input enrichment was 0.152 ratio.
The bound/input enrichment of `AAAUAUGGUCCCAUUGCCGAUGUGUCUAUUGUAUAUGACCAGCAGUCUAGGCGUUCAAGAGGAUUUGCCUUUGUAUAUUUUGAAAAUGUAGAUGAUGCCAAGGAAGCUAAAGAACGUGCC` is reported as 0.38 ratio.
The bound/input enrichment of `GAGGAAAAGGCCAAACAAGACCCAUCUUAUUAUUUGAAAAACACAAAUUCGGAGACGAGAGAGACGCUACAGGAGCUCUACAAAGAGUUCAAAGGAGAUGAGAUUUUAGCAGCUACCAUG` is reported as 0.414 ratio.
`CUGUCUGAUAUCAUGGUCUCGCUGGCAAAUGCUUCAACCUUACAGAAUGAUUCCAGUUGGAUAGAAACAAUAAGGAAGUUUGUGACGGAGACCCUUAAAGGUGGCACUAGAUUGAACAGU` gave a bound/input enrichment of 0.314 ratio.
`ACUACCCUUUCUGGGGUCCAAGAAGAAUCUGCCCUUUGCUAUCUUCUCCAAGUUGAUGAGUUUAGAUUUUUAUUGGACUGUGGCUGGGAUGAGCACUUUUCUAUGGAUAUUAUUGAUUCC` gave a bound/input enrichment of 0.461 ratio.

Study 4 — target: CCNF, cyclin fold, Cln2 fusion (human); technique: yeast growth competition, sequencing; matrix: yeast; setting: strong parent motif; reference: not given; direction: higher = stronger binding
Starting sequence: PKN2 docking peptide (human); VSAVRKLDFSDTM; partner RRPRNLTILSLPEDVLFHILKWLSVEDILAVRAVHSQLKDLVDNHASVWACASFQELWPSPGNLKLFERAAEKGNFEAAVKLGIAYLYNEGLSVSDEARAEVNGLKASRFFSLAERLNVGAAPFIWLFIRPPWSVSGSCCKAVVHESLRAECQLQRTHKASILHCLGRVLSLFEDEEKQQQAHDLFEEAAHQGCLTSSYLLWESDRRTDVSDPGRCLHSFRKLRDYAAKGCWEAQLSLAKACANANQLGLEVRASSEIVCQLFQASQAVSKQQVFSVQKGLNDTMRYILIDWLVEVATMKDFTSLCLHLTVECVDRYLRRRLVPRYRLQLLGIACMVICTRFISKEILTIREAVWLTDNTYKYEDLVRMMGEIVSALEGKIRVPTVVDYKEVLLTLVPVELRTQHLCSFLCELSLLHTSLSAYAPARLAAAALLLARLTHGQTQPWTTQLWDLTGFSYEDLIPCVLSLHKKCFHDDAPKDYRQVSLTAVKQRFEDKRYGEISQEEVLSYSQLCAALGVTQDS
`F9L`: “normalised enrichment score” 5.8.
Under “normalised enrichment score”, `S10V` is recorded as 6.49.
`K6G`: “normalised enrichment score” 4.62.
`R5A`: “normalised enrichment score” 0.765.
`V4Q` — result for “normalised enrichment score”: 7.69.
For `S2A`, “normalised enrichment score” read 7.18.
For `A3S`, “normalised enrichment score” read 6.11.
`L7C`: “normalised enrichment score” 0.0482.
For `T12E`, “normalised enrichment score” read 6.67.
`L7P` — result for “normalised enrichment score”: -0.17.
`D8I` — result for “normalised enrichment score”: 8.35.
`S10C`: “normalised enrichment score” 7.27.

Study 5 — technique: RNA Bind-n-Seq; molecule type: RNA; matrix: in vitro; tested at: 365 nM; reference: no-protein control; direction: higher = stronger binding
Target: RNA binding protein fox-1 homolog 2, RRM domain, GST-SBP tag (RBFOX2, Homo sapiens, UniProt O43251-10, residues 100-194)
Setting: natural RNA segment, single round, ends assumed
All sequences stand within: GGGAGUUCUACAGUCCGACGAUC … UGGAAUUCUCGGGUGCCAA
Residues (chain): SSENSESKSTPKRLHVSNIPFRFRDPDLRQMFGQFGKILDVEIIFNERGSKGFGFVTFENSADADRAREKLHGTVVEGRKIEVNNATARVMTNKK
`CUGCGCUGUGGCUGUCCCUGGACGUGCUGCAGCCCUCCUGUCCCUUCCCCCCAGUCAGUAUUACCCUGUGAAGCCCCUUCCCUCCUUUAUUAUUCAGGAGGGCUGGGGGG` — result for “RBNS enrichment (R)”: 0.245.
Under “RBNS enrichment (R)”, `GAGCCUGGUUCUCCCCCAGAGGUGUUGAUGCUGAAAACUUGCCAUUGUGGGCAGGGAGGGCAGAAAUAAAGUCUGCAGCCGUGCCACUCCUUGGGUCAAAAGGACACGCA` is recorded as 0.621.
For `CUCAAUGACACCAUUUUUAGUUUUAUUUCCUGAUAGCAAAAGGAAAAAAAACACCCAUCCCUCAAAAAGGCCAAGGUCCCGUCCCCCUGUUGUCGGUGAUUUGUUUGUCU`, “RBNS enrichment (R)” read 0.484.
For `GCCCUGGGUGCCCACUGACACCGACCCCCAGGCAGAGGCCUUUGUCUUCAGCACUCCUGAGAAGUUGGCUCUUUACCCCUUCUCCUCUGCUGCCCCUCCUUCCUGCUGGU`, “RBNS enrichment (R)” read 0.349.
`CCAUCCCGGGUUUGGCUGAGCCUGGCUGGAGAGCUGCUAUGCUAAACCUCCUGCCUCCCAAUACCAGCAGGAGGUUCUGGGCCUCUGAACCCCCUUUCCCCACACCUCCC` — result for “RBNS enrichment (R)”: 0.733.
Under “RBNS enrichment (R)”, `AACAUUUCCCGGGGGUGGUUUUGAACCUGCUUGGGUGGUUGUGUGGUGCUGACGCUGCCACUGCCCUGUUGUUCAUUGAGAAUGAUUGUUAAAUGACACUCUUCCUUUAG` is recorded as 0.254.
Under “RBNS enrichment (R)”, `GUGAGGACCAAAAAUCUGAAACUCUUAUGAAUCUGACAUAUUAUAUGGAAAUUAUAUCUUGUGACCGUCUUCAAGUGCAUGGACUUAAAAUUCAUGAGAGACUAAAUGUG` is recorded as 2.94.
Under “RBNS enrichment (R)”, `GGGUUUUGGGAGGGUGGAGGUGGGCAGACGCCCCUGUAAAUACAGCCCUGGGGUGGUCAGAGAGGCCCAUGCCACCCGUCCCCACUUGUGACAUCCCCUUCGACCACCAG` is recorded as 0.389.
For `GGCUAGUCACCUGGCCCCUGUGUGCCCCGUGUUCAUCUGUGAAAGGAGGUAAAAAAAAAAAAAUAUCUACCUGCUGGAUGUCACCCCACACUAAGGGCUUCCACCACUGC`, “RBNS enrichment (R)” read 0.273.
Under “RBNS enrichment (R)”, `UUUUUCUUUUGUAAAGGCAAUGAGCUAGUCCCAGAAAGGAUCCUUCAGUUACAUACAAUUUGUUUAAUGAAAUGUCAUGGCUCUGUUCAUAUUUUUGUCUUGUUCUUCCA` is recorded as 0.437.
Under “RBNS enrichment (R)”, `CAUGAAUAAAGGUAUGUAUGUACGAAUGUGUAUAUAUUAUAUAUAUGACAUCUAUUUUGGAAAAUGUUUGCCCUGCUGUACCUCAUUUUUAGGAGGUGUGCAUGGAUGCA` is recorded as 1.12.
Under “RBNS enrichment (R)”, `UUUUAGGCACUCUUAAACCAUCUGCCUCUAAAAGCAUUGGAUGUAGCAUUGCGCAAUUAGGUUGUUCCUUAUUUGCUUUGUUGUACUACCUGUGUAUAUAGUUUUUAUCU` is recorded as 0.475.

Repeated from above (study 4):
For `T12E`, “normalised enrichment score” read 6.67.
Under “normalised enrichment score”, `S10V` is recorded as 6.49.
`L7P` — result for “normalised enrichment score”: -0.17.
